Measured values of several laboratories.
Each line is one published result; not all experiments were run side by side. ± marks the error that the study gave.
AHR: Aryl hydrocarbon receptor (AHR, Homo sapiens, UniProt P35869)
Glutamate NMDA receptor; Grin1/Grin2c V689I: Glutamate NMDA receptor; Grin1/Grin2c (Rattus norvegicus, UniProt P35439+Q00961, V689I)
GABA-A receptor; alpha-1/beta-2/gamma-2: GABA-A receptor; alpha-1/beta-2/gamma-2 (Rattus norvegicus, UniProt P18508+P62813+P63138)
HDAC6 ZnF-UBD domain: Protein deacetylase HDAC6, ZnF-UBD domain (HDAC6, Homo sapiens, UniProt Q9UBN7)

Cc1ccc2ccc3ccc(C)cc3c2c1  EC50 (AHR; reporter gene, agonist, yeast LacZ reporter; Saccharomyces cerevisiae; 18 h): 1.78 µM
CCOc1ccc(N(C)S(=O)(=O)c2cc(Cl)sc2C(=O)Nc2ccc3c(c2)C(=O)NC3=O)cc1OC  EC50 (NR1H3 (Homo sapiens, UniProt Q13133)): > 25 µM
CCCCC/C=C\C/C=C\C/C=C\C=C\C(=O)CCCC(=O)O  EC50 (OXER1 (Homo sapiens, UniProt Q8TDS5); agonist, cell-based): 1.82 µM
N[C@H](CNC(=O)c1cc(Br)c(-c2ccccc2F)s1)C(=O)O  EC50 (Glutamate NMDA receptor; Grin1/Grin2c V689I; receptor activation, positive modulator; rat; together with: glutamate 300 µM): 0.0132 µM
CC(=O)c1cc([N+](=O)[O-])c(Sc2cccc(Cl)c2Cl)s1  EC50 (USP7 (Homo sapiens, UniProt Q93009); enzyme activity, inhibitor): 4.2 µM
O=C1Nc2c(ccc(Cl)c2Cl)C1=NO  EC50 (CALM1/Kcnn2 (Homo sapiens, UniProt P0DP23+P70604); ion current, activator, whole-cell patch clamp): 1.7 µM
O=S(=O)(O)C1CCNCC1  EC50 (GABA-A receptor; alpha-1/beta-2/gamma-2; chloride current, agonist, whole-cell patch clamp; HEK293 expressing GABAA; 30 s): 6.2 µM
c1ccc2c(c1)ccc1ccccc12  EC50 (AHR; reporter gene, agonist, yeast LacZ reporter; Saccharomyces cerevisiae; 18 h): 43.9 µM
Cn1cc(-c2ccc(-c3cncc(Cl)c3N3CCC4(CCNC4=O)CC3)cc2)cn1  log2 fold change (COLO 205; gene expression, microarray, refers to: SOD1 mRNA; concentration not given, 2 h; relative to: untreated cells): -2.89
Cn1cnc2ccc(Nc3c(F)ccc(NS(=O)(=O)N4CC(F)C4)c3Cl)c(Cl)c2c1=O  EC50 (BRAF (Homo sapiens, UniProt P15056, V600E); target engagement, isothermal dose-response CETSA, LC-MS; A-375; 30 min, 37 °C): 0.0344 µM
CCc1ccccc1-c1ccc(C(=O)NC[C@@H](N)C(=O)O)s1  EC50 (Glutamate NMDA receptor; Grin1/Grin2c V689I; receptor activation, positive modulator; rat; together with: glutamate 300 µM): 0.0055 µM
CCn1c(-c2nc3cc(C(=O)N4CCC[C@@H](N)C4)cc(OC)c3n2C)cc2cccnc21  EC50 (AHR; agonist, FRET): > 100 µM
CC(C)C[C@H](NC(=O)[C@H](Cc1ccccc1)NC(=O)[C@@H](N)Cc1ccc(O)cc1)C(=O)N[C@@H](Cc1ccccc1)C(=O)N[C@@H](CCCNC(=N)N)C(=O)N1CCC[C@H]1C(=O)N[C@@H](CCCNC(=N)N)C(=O)N[C@@H](CC(N)=O)C(N)=O  EC50 (Neuromedin-U receptor 2 (Mus musculus, UniProt Q8BZ39); Gq signalling, agonist, IP-1 accumulation; average of runs): 0.068 µM
CC[C@@H]1[C@H](F)C(=O)N[C@@H]1COc1nccc2cc(C(N)=O)c(OC)cc12  inhibition (NEK9 (Homo sapiens, UniProt Q8TD19); ATP-site probe binding, ActivX profiling; THP-1 cell lysate; 0.2 mM, Lys2 site): 8.3%
CNC[C@H](O)c1cccc(O)c1  EC50 (Alpha-1D adrenergic receptor, Δ1-79 (ADRA1D, Homo sapiens, UniProt P25100); calcium mobilisation, agonist; COS-7 transfected): 0.00832 µM
CCCCC[C@H](O)/C=C/[C@H]1[C@H](O)CC(=O)[C@@H]1C/C=C\CCCC(=O)O  EC50 (PTGER1 (Homo sapiens, UniProt P34995, G92T); IP1 accumulation, agonist; AD293; EP1 G92T mutant): 0.0134 µM
CC(C)C[C@H](NC(=O)[C@H](Cc1ccccc1)NC(=O)[C@H](Cc1ccc(O)cc1)NC(=O)CNC(=O)[C@H](CCCNC(=N)N)NC(=O)[C@H](CO)NC(=O)[C@H](CCC(N)=O)NC(=O)[C@H](CO)NC(=O)[C@H](C)NC(=O)[C@H](Cc1ccccc1)NC(=O)[C@@H]1CCCN1C(=O)[C@H](CO)NC(=O)[C@H](CCC(N)=O)NC(=O)[C@H](Cc1ccccc1)NC(=O)[C@H](CCC(=O)O)NC(=O)[C@H](CCC(=O)O)NC(=O)[C@H](CC(=O)O)NC(=O)[C@@H](NC(=O)[C@H](CCCNC(=N)N)NC(=O)[C@@H](N)Cc1ccccc1)C(C)C)C(=O)N[C@@H](Cc1ccccc1)C(=O)N[C@@H](CCCNC(=N)N)C(=O)N1CCC[C@H]1C(=O)N[C@@H](CCCNC(=N)N)C(=O)N[C@@H](CC(N)=O)C(N)=O  EC50 (NMUR1 (Homo sapiens, UniProt Q9HB89); beta-arrestin recruitment, agonist): 8.71e-05 µM
COc1cc(Nc2ncc3c(n2)-c2ccc(Cl)cc2C(c2c(F)cccc2OC)=NC3)ccc1C(=O)NCCOCCOCCNC(=O)COc1cccc2c1C(=O)N(C1CCC(=O)NC1=O)C2=O (stereo not drawn)  EC50 (ABL1 (Homo sapiens, UniProt P00519); binding, kinobead competition; MV4-11 cell lysate): > 30 µM
CCCCNc1c(C(=O)OCC)c(C)nc2c1cnn2CC  EC50 (GABA-A receptor; alpha-1/beta-2/gamma-2; chloride current, agonist, whole-cell patch clamp; HEK293 expressing GABAA; 30 s): 12 µM
CC1=C(C(=O)OC(C)C)C(c2ccccc2Br)C2=C(CC(C)(C)CC2=O)N1 (stereo not drawn)  EC50 (ADGRG1 (Homo sapiens, UniProt Q9Y653, H381S); agonist, GTPγS binding; together with: G13): 6.69 ± 0.56 µM
Cc1cc(NC(=O)CCC(=O)O)nn1C  Kd (HDAC6 ZnF-UBD domain): > 1000 µM
O=C(O)C1=CCNCC1  EC50 (GABA-A receptor; alpha-1/beta-2/gamma-2; membrane potential, agonist, QP-DHM fluorescence; HEK293 expressing GABAA): 7.8 µM
Cn1cc2c(C(=O)O)ccc(NS(=O)(=O)c3ccc(OCC4CCC4)c(Cl)c3)c2n1  EC50 (CHRM1 (Homo sapiens, UniProt P11229); agonist): > 10 µM
O=C(O)CN1Cc2ccccc2C1=O  Kd (HDAC6 ZnF-UBD domain): > 1000 µM

Some of these lines once more:
O=C(O)C1=CCNCC1  EC50 (GABA-A receptor; alpha-1/beta-2/gamma-2; membrane potential, agonist, QP-DHM fluorescence; HEK293 expressing GABAA): 7.8 µM
Cn1cc2c(C(=O)O)ccc(NS(=O)(=O)c3ccc(OCC4CCC4)c(Cl)c3)c2n1  EC50 (CHRM1 (Homo sapiens, UniProt P11229); agonist): > 10 µM
O=C(O)CN1Cc2ccccc2C1=O  Kd (HDAC6 ZnF-UBD domain): > 1000 µM
